Measured values of several laboratories.
A part holds a random share of what one study measured. Changes are numbered by the printed parent chain.

Series 1 — technique: aptamer microarray, sandwich; form: DNA with 2'F-ANA; medium: in vitro; tested at: 200 nM; together with: Cy3 exosite-II aptamer, 400 nM; direction: higher = stronger binding; endpoint: mean fluorescence intensity; sequence: GGTTGGTGTGGTTGG
Target: Prothrombin, mature alpha-thrombin (F2, Homo sapiens, UniProt P00734)
Notes: whole 15-mer aptamer, many near background
2'F-ANA at 3 7 8 11 14: 669 a.u.
2'F-ANA at 2 4 5 6 7 8 10 11 12 15: 48.1 a.u.
2'F-ANA at 3 5 6 7 8 9 10 12 13 14: 51.1 a.u.
2'F-ANA at 1 2 4 6 7 8 9 10 11 12 13 14: 57.5 a.u.
2'F-ANA at 1 2 5 6 10 11 12 14 15: 59.5 a.u.
2'F-ANA at 1 2 3 5 6 7 10 11 12: 48.2 a.u.
2'F-ANA at 1 3 12 15: 539 a.u.
2'F-ANA at 1 3 5 6 11 12 13 14: 45.9 a.u.
2'F-ANA at 1 4 5 6 7 8 11 12 13 14 15: 47.2 a.u.
2'F-ANA at 1 5 6 7 10 12 13 14 15: 48.9 a.u.
2'F-ANA at 3 8 9 12 13 14 15: 587 a.u.
2'F-ANA at 1 3 5 6 8 11 13: 56.1 a.u.
2'F-ANA at 1 5 7 8 9 10 15: 47.7 a.u.
2'F-ANA at 5 7 9 10 13 14: 42.8 a.u.
2'F-ANA at 5 7 10 13: 45.7 a.u.
2'F-ANA at 3 5 8 11 13: 157 a.u.
2'F-ANA at 3 4 6 9 10 15: 253 a.u.
2'F-ANA at 1 2 5 8 11 13: 52.7 a.u.
2'F-ANA at 2 5 6 7 9 11 12 13: 84.8 a.u.
2'F-ANA at 1 2 3 4 6 9 13: 99.9 a.u.
2'F-ANA at 3 5 7 10 12 14: 53.8 a.u.
2'F-ANA at 1 2 5 6 8 13 14 15: 54.6 a.u.
2'F-ANA at 1 2 3 5 6 7 8 9 13 14: 48.9 a.u.
2'F-ANA at 1 3 5 8 10 11 15: 97.4 a.u.

Series 2 — technique: DHFR PCA, deep sequencing; medium: yeast; together with: (+)-ABA 0 µM; baseline: wild-type fitted maximum; direction: higher = stronger binding; endpoint: relative binding score
Target: ABI1, truncated, D143A, DHFR fusion (Arabidopsis thaliana)
Notes: methotrexate growth selection, single substitutions
Starting sequence: PYL1, truncated, DHFR fusion (Arabidopsis thaliana); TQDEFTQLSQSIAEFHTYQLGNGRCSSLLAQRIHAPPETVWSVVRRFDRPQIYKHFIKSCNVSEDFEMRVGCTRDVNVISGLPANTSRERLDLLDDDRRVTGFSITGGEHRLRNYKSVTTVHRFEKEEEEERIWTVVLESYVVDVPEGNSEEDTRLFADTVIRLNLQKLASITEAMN; partner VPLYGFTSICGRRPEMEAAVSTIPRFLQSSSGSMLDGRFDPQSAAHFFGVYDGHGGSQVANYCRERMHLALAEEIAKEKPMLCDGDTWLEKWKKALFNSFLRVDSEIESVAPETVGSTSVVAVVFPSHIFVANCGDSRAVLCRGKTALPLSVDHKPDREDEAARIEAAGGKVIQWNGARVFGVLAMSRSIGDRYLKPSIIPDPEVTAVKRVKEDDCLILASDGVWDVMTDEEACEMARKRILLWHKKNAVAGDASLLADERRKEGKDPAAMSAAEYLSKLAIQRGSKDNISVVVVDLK
P83T: 16.6%
K126D: 50.3%
N165H: 5.78%
M176I: 7.8%
G102H: -7.67%
E147G: -4.4%
I52M: 30%
K58A: 10.5%
M176R: 8.54%
N22R: 35.5%
G102I: -0.411%
V70L: 1.79%
V70Q: 0.0632%
L82I: 20.7%
N77A: 42.1%
A13L: 19.5%
N22F: 12.8%
Q31H: 2.76%
L169R: 0.54%

Series 3 — technique: RNA Bind-n-Seq; form: RNA; medium: in vitro; tested at: not given; baseline: input RNA pool; direction: higher = stronger binding; endpoint: bound/input enrichment
Target: RING finger protein unkempt homolog, zinc fingers 1-6, GST-SBP tag (UNK, Homo sapiens, UniProt Q9C0B0, residues 30-357)
Notes: RNA with constant flanks, human and mouse sites, ends assumed
All sequences stand within: GGGAGUUCUACAGUCCGACGAUC … CAACAGAGGAUUGAGCAUCA
Residues (chain): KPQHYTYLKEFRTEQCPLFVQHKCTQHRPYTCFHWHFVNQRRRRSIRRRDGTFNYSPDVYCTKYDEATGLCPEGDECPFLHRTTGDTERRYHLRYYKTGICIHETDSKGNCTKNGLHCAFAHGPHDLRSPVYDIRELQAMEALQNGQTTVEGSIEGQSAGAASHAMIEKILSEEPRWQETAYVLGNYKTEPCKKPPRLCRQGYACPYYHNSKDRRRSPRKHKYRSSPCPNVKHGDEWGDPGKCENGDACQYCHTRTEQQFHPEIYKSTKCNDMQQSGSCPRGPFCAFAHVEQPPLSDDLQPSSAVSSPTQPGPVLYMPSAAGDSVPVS
GUUUUUGGCUGCAAUUGCAUGAAAUCCCAAUGGUGUAGACCAGUGGCGAUGGAUCUAGGAGUUUACCAACUGAGACAUUUUUCAAUUUCUUUCUUGUCAUCCUUGCUGGGGACUGAAAAC: 0.463 ratio
AAAUCUCGAAACAAUGAAUCAGAAAAGUUCAGUUCUAGUUCACCAUUGACUUUACCAGCAGAUUUGAAGAACAUCUUGGAGAAACAGUUUUCUAAAUCUUCCAGAGCUGCACACCAGGAU: 0.157 ratio
UAUUUACAACAGCUCACCGGAGCGAGAACAGUUCCUCGGGUCUUCAUAGGUAAAGACUGCAUAGGCGGAUGCAGUGAUCUAAUCUCCAUGCAACAGACUGGGGAGCUGAUGACUCGGCUG: 0.216 ratio
AAUUUGUUGUCUGCAAGCAAAUUAUAUAAUAAUAUUACCUUCGAAGAACUUGGAGCUCUUUUAGAGAUCCCUGCAGCUAAGGCGGAAAAGAUAGCAUCUCAAAUGAUAACCGAAGGACGU: 1.61 ratio
CUCUGUAGACAUAAGCAGUUCUAGCAUGAAGGGACGCACCAAUGUGAGAAAACUGAGCCUGUUUAUAUUAAAACAAAACAAAAAAACAGUAAGGAUGAGCUCUGUUCACUUGGAUUAAUG: 0.29 ratio
UUGCCUCCUCACUUUCCUGGGCAUUCCUCCGAGAUCUCCUGCCUCUCAACCUUUGCUAGUGCUAUUCUCUGUGCCUGGGACGAUACCUUUGACUCAUCUUCGACUGACCUAAUGGAGAGA: 0.407 ratio
AUCAAUGCUGUGGUACUGUUGAUUUUAUUGAGUGCCCUGGCUGAUCCGGAUCAGUAUAACUUUUCAAGUUCUGAACUGGGAGGUGACUUUGAGUUCAUGGAUGAUGCCAACAUGUGCAUU: 0.0619 ratio
GCAGGGGCUCUCACACAUAUUUUCUUACUUAAACCUCCUCACAACUCUGAAGUAGAUGUAUUAUCCCUGGUUCUAUGAAUGAGAACAUUGGCCCAGAGAGGAUGACCCAGGUCUUGUAGU: 0.402 ratio
CCAAAGAAACUCCAUUUAUGUCCCUUGUGUGGCAAAAAUUUCUCUAACAACUCAAACCUAAUUAGGCACCAGAGAAUACAUGCAGCUGAAAGACUGUGUAUGGGUGUGGACUGCACUGAA: 0.276 ratio
AAGCCAAUUCAGAACUUCAUUGAAACUGACACUACAGAAGCUGUAGGAAAUGUAUGUCAGCUAGCACAAGCAGAGCACAUAUUAAAAUCCUGUCCAUUUCGGAGCCCUAUUCCAAUCUGG: 0.314 ratio
GUCACAGAAAUUCCUAAAGAAGAGAAGGACCCUGGAAUGGGUGCAAUGGGUGGAAUGGGAGGUGGUAUGGGAGGUGGCAUGUUCUAACUCCUAGACUAGUGCUUUACCUUUAUUAAUGAA: 5.7 ratio

Series 4 — target: CCND1, cyclin fold, Cln2 fusion (human); technique: yeast growth competition, sequencing; medium: yeast; notes: weak parent motif; baseline: not given; direction: higher = stronger binding; endpoint: normalised enrichment score
Starting sequence: WEE1 docking peptide (human); CTLRQKLIFSPCS
K6A: 0.213
C12A: 0.0241
C1A: 0.288
P11A: 0.13
R4A: 0.0938
F9A: -0.128

Series 5 — technique: RNA Bind-n-Seq; form: RNA; medium: in vitro; tested at: 365 nM; baseline: no-protein control; direction: higher = stronger binding; endpoint: RBNS enrichment (R)
Target: RNA binding protein fox-1 homolog 2, RRM domain, GST-SBP tag (RBFOX2, Homo sapiens, UniProt O43251-10, residues 100-194)
Notes: natural RNA segment, single round, ends assumed
All sequences stand within: GGGAGUUCUACAGUCCGACGAUC … UGGAAUUCUCGGGUGCCAA
Target sequence (chain): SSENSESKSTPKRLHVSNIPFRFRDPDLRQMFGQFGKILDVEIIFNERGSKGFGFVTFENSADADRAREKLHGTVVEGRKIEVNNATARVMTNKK
GGACAAAGCCUCCUGAUUCUACCUGGAUCACUCCUGUUAUGUGACAGUUAUGUGGUGGGUCCCUGCUAAAAUCUCCCUGACCACCUGAGGGCAUAAAGCAUGUGUCUUAU: 13.9
CCACACCCGACACCAGCCCUGCUGCUUCCUAACUUAUUGCCUGGGCAGUGCCCACCAUGCACCCCUGAUGUUCGCCGUCUGGCGAGCCCUUAGCCUUGCUGUAGAGACUU: 0.794
UCUUCAUGUUUUAACAAAAAAGAAAAAAAGAAAAAAAAUCCCAUCCCUUUUGUACAUACUCCUGUAAAUUGUUUUAAAUACUUGAGCCUUUUCUUGGAGGGGGAGGGAAG: 0.444
UUCCCUGUGCUUGGCUCUCCAAAUUUCUGCCCAUCCAUCCUGCCCCUCACACAGUAGUACUAGUUGACAGUACUAGUUGGUUGAAACUAGGGAGACAGUUACCUAGACUA: 0.414
GCAGCAAGCGGCUACCCCCCGAUCUGCAAAAGGGCCUCUCCCUUUGUGUUCUAUACAUUGUGAAUCUUCCCGUCUGAAGAACGCCCAGCCUGCCCAGACAAAGCCCCGCC: 0.956
CUCCACACAGUGGCCCCAGCCGUGACCACCCUGUACCAGUCCCUGCUGUGUCCUGUCUACCUGUGUGUUCUCUGACUACCGCACUGGCCAUUAAAUAUGGCAGAGACUGC: 0.283
GUGUUAAUAAUUGUUCUGAUGAAUCAUACAGUUGAAAUAAAGUGACGUAACAUCUUGUAUACUGUGAGUUGGCUGUAGCUAGUCCUGCUUGAUUACCUACCUCAUUUACA: 0.54
UCUCUGGGCCUCUAUUUCUCCAUUUGUAAAACAAGUGGCUGCAGUAGAUGAUGGCUGAGAGCCCUUCCUGUUCCCAGAUGCCUUGGUCCAAAGACCCCACCCCUCUGCUG: 0.222
AGCAGGUCCCCAGGGGCCUGCAGGGAAUCUUUCAGCUGCACGGAUUGGGAUUUCCCUCCAAACCAAACUGUCCUUUAAGGGGCAGCCUCCUCUUUUACUAACUCCACCCU: 0.621
GCCUCACUUUUAAUGAACAAAUGGCCUUUAUUAAAAACUGAGUGACUCUAUAUAGCUGAUCAGUUUUUUCACCUGGAAGCAUUUGUUUCUACUUUGAUAUGACUGUUUUU: 0.408
GAGAGAGACAAAAGUGUUUGUUUGUUUUGUUUCCAGGAGCUUGUCAAAUAAACCAAUGAAAAAGCUUUGCCGAUGAUAAUAAAAGAUGCUCACACUUUCAUAGCGCUUGC: 0.659
GGCUCAUACUUAUAUAGCACUUACUUUGUUGCAAGUACUGCUGUAAAUAAAUGCUUUAUGCAAACCAUUUGCCUUAUCCUUAUAAGGACCUUAUGGGAGAUGAAUCAUUA: 0.256

Some of these lines once more (series 1):
2'F-ANA at 1 3 12 15: 539 a.u.
2'F-ANA at 1 5 6 7 10 12 13 14 15: 48.9 a.u.
2'F-ANA at 3 5 7 10 12 14: 53.8 a.u.
2'F-ANA at 1 2 5 8 11 13: 52.7 a.u.
2'F-ANA at 2 5 6 7 9 11 12 13: 84.8 a.u.
2'F-ANA at 5 7 10 13: 45.7 a.u.
2'F-ANA at 3 5 8 11 13: 157 a.u.
2'F-ANA at 1 4 5 6 7 8 11 12 13 14 15: 47.2 a.u.
2'F-ANA at 1 3 5 6 11 12 13 14: 45.9 a.u.
2'F-ANA at 2 4 5 6 7 8 10 11 12 15: 48.1 a.u.
2'F-ANA at 3 8 9 12 13 14 15: 587 a.u.
